Assay results collected from several papers.
Every numbered part comes from another study and shows a few of its results, in no order.

Block 1
Target: Prothrombin, mature alpha-thrombin (F2, Homo sapiens, UniProt P00734)
Technique: aptamer microarray, sandwich
Form: DNA with 2'F-ANA
Sample: in vitro
Concentration: 200 nM
Notes: whole 15-mer aptamer, many near background
Together with: Cy3 exosite-II aptamer, 400 nM
Direction: higher = stronger binding
Sequence: GGTTGGTGTGGTTGG
| Modification | mean fluorescence intensity [a.u.] |
| --- | --- |
| 2'F-ANA at 1 2 3 4 6 7 8 9 10 14 15 | 61.7 |
| 2'F-ANA at 1 4 5 6 7 11 12 14 | 56.6 |
| 2'F-ANA at 4 5 10 11 12 13 14 15 | 43.1 |
| 2'F-ANA at 6 7 9 11 12 14 | 178 |
| 2'F-ANA at 1 5 10 12 14 | 64 |
| 2'F-ANA at 1 6 7 9 13 15 | 105 |
| 2'F-ANA at 1 3 4 5 7 12 13 | 86.1 |
| 2'F-ANA at 2 3 4 5 9 11 13 15 | 60.7 |
| 2'F-ANA at 2 4 5 6 7 8 12 13 14 15 | 50.3 |
| 2'F-ANA at 2 4 5 8 9 13 14 | 42.4 |
| 2'F-ANA at 2 4 6 7 11 14 | 88.4 |
| 2'F-ANA at 1 2 3 5 6 7 10 12 13 14 | 62.9 |
| 2'F-ANA at 1 2 3 7 8 9 11 13 | 187 |
| 2'F-ANA at 4 5 9 10 14 15 | 47 |
| 2'F-ANA at 1 2 3 6 7 8 9 10 11 13 15 | 93.6 |
| 2'F-ANA at 1 5 8 9 12 13 14 15 | 45.2 |
| 2'F-ANA at 1 2 6 9 11 13 | 119 |
| 2'F-ANA at 1 3 4 5 7 13 15 | 111 |
| 2'F-ANA at 1 2 4 6 7 10 12 15 | 59.6 |
| 2'F-ANA at 3 4 5 7 10 11 14 | 47.1 |
| 2'F-ANA at 1 2 4 6 9 11 | 92.6 |
| 2'F-ANA at 3 6 7 10 11 | 539 |
| 2'F-ANA at 1 4 6 7 10 11 12 14 15 | 45.7 |
| 2'F-ANA at 1 3 4 5 9 10 11 12 14 15 | 48.6 |
| 2'F-ANA at 1 2 3 7 8 11 12 | 424 |

Block 2
Target: Interferon regulatory factor 3, full length, phosphomimetic (IRF3, Homo sapiens, UniProt Q14653, residues 1-427, S386D/S396D/S398D/S402D/T404D/S405D)
UniProt Q14653, sequence (whole entry, unmodified, looked up): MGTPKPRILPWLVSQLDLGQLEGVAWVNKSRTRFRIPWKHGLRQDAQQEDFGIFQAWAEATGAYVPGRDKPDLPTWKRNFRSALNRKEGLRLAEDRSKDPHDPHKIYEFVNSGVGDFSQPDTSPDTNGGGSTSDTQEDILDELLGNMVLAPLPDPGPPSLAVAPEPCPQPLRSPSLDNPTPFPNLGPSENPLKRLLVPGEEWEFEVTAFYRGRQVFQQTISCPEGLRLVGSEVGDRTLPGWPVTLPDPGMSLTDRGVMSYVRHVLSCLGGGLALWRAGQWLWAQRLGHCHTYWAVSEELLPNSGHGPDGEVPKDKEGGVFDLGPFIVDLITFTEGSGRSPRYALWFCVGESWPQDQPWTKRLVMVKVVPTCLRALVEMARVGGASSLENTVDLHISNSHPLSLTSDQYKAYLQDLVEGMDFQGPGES
Technique: protein-binding microarray
Form: double-stranded DNA, one strand shown
Sample: in vitro
Concentration: 2540 nM top
Notes: 60-bp whole probe
Together with: salmon DNA 0.4 mg/ml
Reference: random background probes
Direction: higher = stronger binding
Constant ends, left off below: GCCTAGCAC … GTCTTGATTCGCTTGACGCTGCTG
| Sequence | fitted relative affinity |
| --- | --- |
| GACGATTTCGGGACTGGCGACGTGCTA | 1.84 z-score |
| TTAGGTATCGGGTATCGGTAAGTGCTA | 1.81 z-score |
| TTAGATTCCAGTTCCGATTAGTGCTAG | 3.65 z-score |
| GACGGTTCCCTTTTCCTGACGTGCTAG | 5.96 z-score |
| TTAGGACTGGGGCATCGGTTAGTGCTA | -0.962 z-score |
| CTCTGTCCCCCTTTTATATTGTGCTAG | 1.85 z-score |
| GTGACTCTGAACCTTCAGCTCGTGCTA | -0.447 z-score |
| TTAGGTCTCGGTATCGGTTGGTGCTAG | 2.02 z-score |
| GACGGTCTCGGTATCGGTACGTGCTAG | 2.5 z-score |
| GTAGATATCGGGTTTCGATTAGTGCTA | 2.18 z-score |
| GCCATTTTCCCTCCCTAATTGTGCTAG | 3.3 z-score |
| TTAGATATCCGACTGGATTAGTGCTAG | 0.633 z-score |
| TCACATGTGCTGTCTCAGACTGTGCTA | 0.335 z-score |
| GACGATCTCCGTATCGAGACGTGCTAG | 1.24 z-score |
| TTTAGATTTTTTTTCCTAATGTGCTAG | 1.72 z-score |
| TTATGACTGGGACTGGGTTAGTGCTAG | -0.762 z-score |
| ATTTGCTTCAGGTTTACCAGAGTGCTA | 0.797 z-score |
| TTAGGACTTGACACTGGGTTAGTGCTA | -0.789 z-score |
| ATCGTAAGCAAAAATGATTGGTGCTAG | -0.303 z-score |
| TTAGGTATCAGGTTTCGGTTAGTGCTA | 4.92 z-score |
| TTAGAACTGGGCACTGGATTAGTGCTA | -0.923 z-score |

Block 3
Target: RNA binding protein fox-1 homolog 2, RRM domain, GST-SBP tag (RBFOX2, Homo sapiens, UniProt O43251-10, residues 100-194)
Technique: RNA Bind-n-Seq
Form: RNA
Sample: in vitro
Concentration: 365 nM
Notes: natural RNA segment, single round, ends assumed
Reference: no-protein control
Direction: higher = stronger binding
Residues (chain): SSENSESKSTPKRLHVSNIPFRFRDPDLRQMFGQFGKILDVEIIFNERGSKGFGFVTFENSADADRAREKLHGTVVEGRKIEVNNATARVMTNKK
| Sequence | RBNS enrichment (R) |
| --- | --- |
| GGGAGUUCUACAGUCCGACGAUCGUCUCUUUGAGUAUCUGGAAAUCCCUGUCAUCUGCUGUCAUUGUGAGCAAGAAUUGCCCAGCAUUUGAAUUGCCUGGACUUUGUCCUUCCCACUAGGUGUGCCAUGAUCCUGGAAUUCUCGGGUGCCAA | 0.839 |
| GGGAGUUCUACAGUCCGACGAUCGCCCAAGCUAUCUCAACUACAGGAGCGGAGGGGGACGAAUGAUUGUGAACACAAAGUCUGACUUGAAGAUUCUCUGCAAUGAAGAGAAUUCAUUCAUUCACUCUGCUCAAUGGAAUUCUCGGGUGCCAA | 0.271 |
| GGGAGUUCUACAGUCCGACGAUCGAGGUUAGACUGACAGAAGGUGUGCAGCCUGAUUUACAACCAAACCCUGAACCCUUUUGAAGAACAAUAAAACAUAUUUUACAUGCUUUUUGUGAAUUUCUUCCCCACUCUGGAAUUCUCGGGUGCCAA | 0.318 |
| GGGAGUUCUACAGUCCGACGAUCGGUAUGUUGCGGGGUAUUAAGCAGGAAACCACUGUGUGGUGGGGGGCACUGGGCUUGUUGGGGCCAGAAAUGUCCACGUCCUGAGCUUUCUCCUGGAGCAUGUGCAGAGAUGGAAUUCUCGGGUGCCAA | 1.62 |
| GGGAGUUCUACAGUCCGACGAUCAUAAUUACAUUGGCACAAUGUAUACUUCAGUGCUCACCCGUAGGCAAAUCUCUUUUUAAAAAACUCUUUGGUGCACAAGUAACACAUUUGGCCACAAAACACCAAAGAAUUGGAAUUCUCGGGUGCCAA | 0.51 |
| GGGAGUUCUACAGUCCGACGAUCCACCCCCUUUACAGCUCCCAACUUGGGUCCUGUAAAUGGAGGUGUCAUUGCCAUCACCAUCGCCAGCAUUGAGGAAGAGCCUCUGAAGUGUCAGGACUUUGCAGUGUAGCUGGAAUUCUCGGGUGCCAA | 0.242 |
| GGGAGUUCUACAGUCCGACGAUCAUAGACCUUUCCUUCCGUACCUGAGAGCUGCAGGUACCAAGGGAUCUACCGUGCAGGGACUGGGCAAGCACAGCUUACUGCUAUAAUUGGGUAUAUAAGGCUUAAGAAUUUGGAAUUCUCGGGUGCCAA | 0.47 |
| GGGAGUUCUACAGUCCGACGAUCGAGCGACCGUGGAUGUGCCGCCAUCUCGGCUCCCAUCCUCUGAAGAUGCCGAACCCAUGGUCACUUAUAUAUUUUUUGUAAUUACUAUAUUCUAGUUUGGAGUACUUGCUUGGAAUUCUCGGGUGCCAA | 1.08 |
| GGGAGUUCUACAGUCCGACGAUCUGGGCCUUCCCCUUCCCUCAAGCCAGGGCUCCUCCUCCUGUCGUGGGCUCAUUGUGACCACUGGCCUCUCUACAGCACGGCCUGUGGCCUGUUCAAGGCAGAACCACGACUGGAAUUCUCGGGUGCCAA | 0.311 |
| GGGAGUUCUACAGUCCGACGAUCACCCAUAUGAGAGAAAGGAUUCUCAUACUUAGAACUUUCCUAUGAAGAAAUGGUGGUAAACUUUCUCUACCUAGAAGUAGUGGAAAUUUCAAGGUCAUCUUAAAAAAGAUUGGAAUUCUCGGGUGCCAA | 0.395 |
| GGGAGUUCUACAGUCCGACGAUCAUCUUGUGUAUGUUUUUGGUGCGUAAAAGGGAAAAAUUGGUGUCAUUACUUUUGAAAUUUGCAGGACGAAGGGCAUGCUUUUGGUUUGCUGUAAGAUUGUAUUCUGUAUAUGGAAUUCUCGGGUGCCAA | 1.7 |
| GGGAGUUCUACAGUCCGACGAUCGGAAGGCUUGAGCUGGGGUCCUCCUCUGCGGAGCUUGGAGAAGGUACCCAUCCUGGUCCUAUGCUGGCAGGAACACACGCGAGUGUCACUGAUUGGCCUCCUUCUGGGAUUGGAAUUCUCGGGUGCCAA | 0.386 |

Block 4
Target: Histone acetyltransferase KAT6A, both winged helices, GST fusion (KAT6A, Homo sapiens, UniProt Q92794, residues 1-181)
Technique: protein binding microarray
Form: double-stranded DNA, one strand shown
Sample: in vitro
Concentration: not given
Notes: 8-mer, flanks averaged, mean of 2 arrays, mostly near background
Reference: not given
Direction: higher = stronger binding
Target sequence (chain): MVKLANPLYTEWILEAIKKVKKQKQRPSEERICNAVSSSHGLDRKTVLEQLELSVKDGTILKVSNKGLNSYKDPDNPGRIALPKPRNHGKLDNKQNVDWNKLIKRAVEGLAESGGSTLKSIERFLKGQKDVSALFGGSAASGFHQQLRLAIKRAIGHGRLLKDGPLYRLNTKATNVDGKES
| Sequence | E-score |
| --- | --- |
| AAGACTGT | -0.0766 |
| ATGCCTTG | -0.172 |
| TAAGATGA | -0.126 |
| CTACAGGA | -0.153 |
| CCACTATC | -0.18 |
| AATAGCTA | -0.0198 |
| AGTAATAA | -0.0839 |
| CTAAGAAA | -0.0415 |
| GCCGCGAC | 0.253 |
| CACTATGA | -0.163 |
| CCGTTGGC | 0.195 |
| ACTGAGCA | -0.0499 |
| ATGCCAAC | -0.104 |
| GTTCAAAC | 0.125 |
| CAAGTGTA | -0.153 |
| ATCTAATC | 0.0347 |
| AGTCTCAT | -0.247 |
| CACACTCA | -0.206 |
| ATGGCTCC | -0.0391 |
| CAGTCTTC | -0.0447 |
| CGCATACA | 0.21 |
| ATAATTTC | 0.0055 |
| TCTAGTCA | -0.108 |

Repeated from above (block 2):
| Sequence | fitted relative affinity |
| --- | --- |
| TTAGATATCCGACTGGATTAGTGCTAG | 0.633 z-score |
| TCACATGTGCTGTCTCAGACTGTGCTA | 0.335 z-score |
| GACGATCTCCGTATCGAGACGTGCTAG | 1.24 z-score |
| TTTAGATTTTTTTTCCTAATGTGCTAG | 1.72 z-score |
| TTATGACTGGGACTGGGTTAGTGCTAG | -0.762 z-score |
